Measurements collected from several papers.
Lines come from different studies, so protocols differ. ± gives the spread as reported.
TNKS: Poly [ADP-ribose] polymerase tankyrase-1 (TNKS, Homo sapiens, UniProt O95271)
SIRT5: NAD-dependent protein deacylase sirtuin-5, mitochondrial (SIRT5, Homo sapiens, UniProt Q9NXA8)
Genome polyprotein NS2B-NS3 protease: Genome polyprotein, NS2B-NS3 protease (dengue virus type 2, UniProt P29990)
TRPV4: Transient receptor potential cation channel subfamily V member 4 (TRPV4, Homo sapiens, UniProt Q9HBA0)
VIPR1: Vasoactive intestinal polypeptide receptor 1 (VIPR1, Homo sapiens, UniProt P32241)
Apeh: Acylamino-acid-releasing enzyme (Apeh, Mus musculus, UniProt Q8R146)
HDAC11: Histone deacetylase 11 (HDAC11, Homo sapiens, UniProt Q96DB2)

CCn1cc(C(=O)O)c(=O)c2c(N)c(F)c(NC3CCCCC3)cc21 — inhibition (PDK1 (Homo sapiens, UniProt Q15118); kinase activity; 0.1 µM, together with: ATP at Km): 19.9%
C[Si](C)(C)C[C@H](CN)CC(=O)O — inhibition (TACR2 (Homo sapiens, UniProt P21452); ligand displacement, radioligand; 250 µM): 0%
O=C(CCCc1ccc2c(c1)OCCO2)NCCNC(=O)Cn1c(=O)[nH]c(=O)c2ccccc21 — inhibition (TNKS; enzyme activity, inhibitor; 0.5 µM): 14%
O=C(NC1CCC1)[C@H](Cc1c[nH]c2ccccc12)NC(=O)[C@H](CCCCNC(=S)Nc1cccc(B(O)O)c1)NS(=O)(=O)c1cccc(F)c1 — inhibition (SIRT5; enzyme activity, inhibitor; 100 µM): 17%
Cc1cc(C(=O)N[C@H](C(=O)Nc2cccc(C(N)=O)c2)c2ccc(OCc3ccccc3)cc2)n(Cc2ccccc2)n1 — inhibition (Genome polyprotein NS2B-NS3 protease; enzyme activity, fluorogenic AMC substrate; 50 µM): 94%
CCCCCCCCCCCCCCCC(=O)N[C@@H](CCCCN)C(=O)N[C@@H](CCCCN)C(=O)N[C@@H](CO)C(=O)N[C@@H](CCCNC(=N)N)C(=O)N[C@@H](C)C(=O)N[C@@H](CC(C)C)C(=O)N[C@@H](Cc1ccccc1)C(N)=O — inhibition (F2RL3 (Homo sapiens, UniProt Q96RI0); platelet aggregation, ex vivo LTA; human; 0.3 mg/kg, 30 min, together with: AYPGKF 160 µM; reference: baseline): 16%
NC(=O)[C@@H](O)C[C@H]1CCc2sc3ncnc(O[C@H]4CC[C@H](N5CCOCC5)CC4)c3c21 — inhibition (RIPK3 (Homo sapiens, UniProt Q9Y572); enzyme activity, inhibitor; 10 µM): -35%
O=C(NCc1ccccn1)c1cc(-c2ccccc2)n(-c2ccccc2)n1 — inhibition (Genome polyprotein NS2B-NS3 protease; reporter gene; HeLa; 12.5 µM): 35%
CC(=O)C12NC(C)(C)CC1(C)C(=O)C1=C2c2c(c3c4n2C(C)(C)CC2=C4C4(CC(C)(C)NC(C)(C4)C2=O)CC3(C)C)C(=O)C(C)(C)N1 (single isomer, unassigned; (-)) — inhibition (TRPV4; ion current, inhibitor, patch clamp; HEK-293T; 50 µM): 22.2%
CCn1cc(-c2cccc(C(F)(F)F)c2)c2sc(C(=N)NC3CCS(=O)(=O)CC3)cc2c1=O — inhibition (PHIP, BD2 (Homo sapiens, UniProt Q8WWQ0); 1 µM): 1.8%
CCOC(=O)c1cnc(NCc2cccc(NC(=O)c3cc(-c4ccccc4)n(-c4ccccc4)n3)c2)nc1 — inhibition (Genome polyprotein NS2B-NS3 protease; reporter gene; HeLa; 12.5 µM): 51%
C/C=C/C(=O)Nc1ccc2nc(NCCCCCN(C)C)nc(NCCCCCCN(C)C)c2c1 — inhibition (KMT5C (Homo sapiens, UniProt Q86Y97); enzyme activity, inhibitor, radiometric; 10 µM): 20%
CO[C@@H](C)c1c(NC(=O)Nc2cnc(-n3nccn3)c(C(F)(F)F)c2)cnc2sc(C)nc12 — inhibition (VIPR1; ligand displacement, radioligand; 10 µM): 2.4%
COc1ccc(C(=O)Nc2c(-c3cccs3)nc3ccccn23)cc1 — inhibition (ADRA1D (Homo sapiens, UniProt P25100); ligand displacement, radioligand; 10 µM): < 50%
Cc1cccc(O[C@H]2CCC[C@@H](C(C)CNCc3ccncc3)C2)c1 (relative stereo) — inhibition (DYRK3 (Homo sapiens, UniProt O43781); enzyme activity, inhibitor; 10 µM): -4%
Cc1ccc(-n2nc(C(N)=O)cc2-c2ccc(CC(C)C)cc2)cc1 — inhibition (Genome polyprotein NS2B-NS3 protease; reporter gene; HeLa; 12.5 µM): 61%
CN(Cc1ccc(/C=C/C(=O)NO)cc1)CC12CC3CC(CC(C3)C1)C2 — inhibition (human ETB receptor; agonist radioligand binding; 0.05 µM): -5%
COc1ccc(C#CC2=C[C@H]3C[C@@]4(OC(=O)C=C24)[C@H]2CC[C@H](C(OC)OC)N32)cc1 — inhibition (CNR2 (Homo sapiens, UniProt P34972); ligand displacement, radioligand; 10 µM): -12%
NC(=O)c1cccc(NC(=O)c2cc(-c3ccc(Br)cc3)n(-c3ccccc3)n2)c1 — inhibition (Genome polyprotein NS2B-NS3 protease; reporter gene; HeLa; 12.5 µM): 49%
CN(C)C/C=C/C(=O)Nc1ccc2nc(NCCCCCN(C)C)nc(NCCCCCCN(C)C)c2c1 — inhibition (KMT2A (Homo sapiens, UniProt Q03164); enzyme activity, inhibitor, radiometric; 10 µM): 7%
NC(=O)c1cccc(NC(=O)c2cc(-c3ccccc3)n(-c3ccccc3)n2)c1 — inhibition (Genome polyprotein NS2B-NS3 protease; reporter gene; HeLa; 12.5 µM): 59%
O=C(N(c1ccccc1)c1ccccc1)n1ccnn1 — inhibition (Apeh; serine hydrolase activity, inhibitor, competitive gel-based ABPP; mouse T-cell proteome; 1 µM, 30 min, 37 °C): < 50%
N=C(N)NCc1cccc(CNC(=O)c2cc(-c3ccccc3)n(-c3ccccc3)n2)c1 — inhibition (Genome polyprotein NS2B-NS3 protease; reporter gene; HeLa; 12.5 µM): 19%
O=C1CCC(N2Cc3cc(C(=O)O)c(F)cc3C2=O)C(=O)N1 (centres unmarked) — inhibition (Protein cereblon (CRBN, Homo sapiens, UniProt Q96SW2); tracer binding, NanoBRET target engagement; concentration not given, intact cells, no permeabilisation): ≤ 50%
O=C1c2sc(-c3ccc(N4CCC(F)C4)nc3F)nc2CCN1c1cccnc1 (centres unmarked) — inhibition (L-type Ca2+ channel, benzothiazepine (diltiazem) site; radioligand binding, BioPrint binding panel; 1 µM, together with: antagonist radioligand): -26%
COc1ccc2nc(C)ccc2c1Nc1sn(C)c(=O)c1C#N — inhibition (SARM1 (Homo sapiens, UniProt Q6SZW1); enzyme activity, inhibitor; 10 µM): 100%
O=C1c2sc(-c3ccc(N4CCC(CO)CC4)nc3F)nc2CCN1c1cccnc1 — inhibition (CCR2 (Homo sapiens, UniProt P41597); ligand displacement, radioligand; 1 µM): 3%
Cc1cc(C)nc(SCC(=O)Nc2ncc(Cc3cccc4ccccc34)s2)n1 — inhibition (SIRT5; enzyme activity, inhibitor; 100 µM): < 5%
O=C(NO)c1cccc(OS(=O)(=O)Oc2cccc([N+](=O)[O-])c2)c1 — inhibition (HDAC11; 10 µM): 37%
Cc1cc(C(=O)NCCNC(=O)c2cccc(COc3ccccc3C(N)=O)c2)n[nH]1 — inhibition (TNKS; enzyme activity, inhibitor; 0.104 µM): 100%
O=C(NO)c1cncc(OS(=O)(=O)Oc2ccc(Br)cc2)c1 — inhibition (HDAC11; 10 µM): 45%
O=C(N1CCCC1)n1ccnn1 — inhibition (Apeh; serine hydrolase activity, inhibitor, competitive gel-based ABPP; mouse T-cell proteome; 1 µM, 30 min, 37 °C): > 95%
Brc1ccccc1-c1nnc(CSc2nnnn2-c2ccccc2)o1 — inhibition (DRD1 (Homo sapiens, UniProt P21728); ligand displacement, radioligand; 10 µM): -1%
CS(=O)(=O)Nc1cccc(-c2csc3cnc(Nc4ccc(N5CCN(CCCCCOc6cccc7c6C(=O)N(C6CCC(=O)NC6=O)C7=O)CC5)cc4)nc23)c1 (centres unmarked) — inhibition (DGKA (Homo sapiens, UniProt P23743); probe labelling, inhibitor, KiNativ chemoproteomics; MOLT-4; 1 µM): -19.8%
CN1CCN(Cc2ccc(-c3ccc(CO[C@H]4CCC[C@@H]4NC(=O)c4cc(-c5cnn(C)c5)cnc4N)cc3)cc2)CC1 — inhibition (KSR2 (Homo sapiens, UniProt Q6VAB6); enzyme activity, inhibitor; 0.1 µM): 9%
NC(=O)c1cccc(NC(=O)c2cc(-c3cccs3)n(-c3ccc(Cl)cc3)n2)c1 — inhibition (Genome polyprotein NS2B-NS3 protease; reporter gene; HeLa; 12.5 µM): 44 ± 10%
C[Si]1(C[C@H](CN)CC(=O)O)CCCC1 — inhibition (VIPR1; ligand displacement, radioligand; 70 µM): -3%
CC(=O)N[C@H](C(=O)N[C@@H](CO)C(=O)N[C@@H](Cc1ccccc1)C(=O)N[C@H]1CCCCNC(=N)Nc2ccc(cc2)CCNC(=N)NCCCC[C@@H](C(=O)N2CCC[C@H]2C(N)=O)NC(=O)[C@H](CC(C)C)NC(=O)[C@H](CC(C)C)NC(=O)[C@H](C)NC(=O)[C@H](Cc2c[nH]c3ccccc23)NC(=O)[C@H](Cc2ccc(O)cc2)NC(=O)[C@H](CCC(=O)O)NC1=O)[C@@H](C)O — inhibition (MDM2 (Homo sapiens, UniProt Q00987); protein-protein interaction, inhibitor, TR-FRET; 0.1 µM): 96%
CCCCCCN(O)C(=O)CCCCC[C@@H]1NC(=O)[C@H]([C@@H](C)CC)NC(=O)[C@H](Cc2ccccc2C(F)(F)F)NC(=O)CCSCc2cccc(n2)CSCCCNC1=O — inhibition (HDAC11; enzyme activity, inhibitor, fluorogenic; 0.03 µM): 35%
O=C(Nc1ccc(C(F)F)cc1)[C@H](CC1CCCCC1)Nc1nn2c(=O)ccnc2s1 — inhibition (DUSP3 (Homo sapiens, UniProt P51452); enzyme activity, inhibitor; 10 µM): 1%
O=C(CC1CC2CCC1C2)NCCNC(=O)Cn1c(=O)[nH]c(=O)c2ccccc21 (centres unmarked) — inhibition (TNKS; enzyme activity, inhibitor; 0.5 µM): 5%
C/C1=C\CC/C(C)=C/CC(C)(C)/C=C/C1 — inhibition (TRPV4; ion current, inhibitor, outside-out patch clamp; 100 µM, together with: GSK1016790A 1 µM): 96 ± 3%
CNC(=O)C[C@H](Cc1ccc(C#N)cc1)NC(=O)c1cc(-c2ccc(CN[C@H](C)c3ccc(C)cc3)o2)ccc1Cl — inhibition (Motilin receptor (MLNR, Homo sapiens, UniProt O43193); agonist response, antagonist; human cells; 10 µM, motilin antagonist): 50%
O=C(NO)c1cccc(OS(=O)(=O)Oc2ccccc2)c1 — inhibition (HDAC11; 10 µM): 29%

For quick reference, copied from above:
CCn1cc(C(=O)O)c(=O)c2c(N)c(F)c(NC3CCCCC3)cc21 — inhibition (PDK1 (Homo sapiens, UniProt Q15118); kinase activity; 0.1 µM, together with: ATP at Km): 19.9%
C[Si](C)(C)C[C@H](CN)CC(=O)O — inhibition (TACR2 (Homo sapiens, UniProt P21452); ligand displacement, radioligand; 250 µM): 0%
O=C(CCCc1ccc2c(c1)OCCO2)NCCNC(=O)Cn1c(=O)[nH]c(=O)c2ccccc21 — inhibition (TNKS; enzyme activity, inhibitor; 0.5 µM): 14%
O=C(NC1CCC1)[C@H](Cc1c[nH]c2ccccc12)NC(=O)[C@H](CCCCNC(=S)Nc1cccc(B(O)O)c1)NS(=O)(=O)c1cccc(F)c1 — inhibition (SIRT5; enzyme activity, inhibitor; 100 µM): 17%
Cc1cc(C(=O)N[C@H](C(=O)Nc2cccc(C(N)=O)c2)c2ccc(OCc3ccccc3)cc2)n(Cc2ccccc2)n1 — inhibition (Genome polyprotein NS2B-NS3 protease; enzyme activity, fluorogenic AMC substrate; 50 µM): 94%
